Measured values gathered from unrelated publications.
Lines come from different studies, so protocols differ. Values joined by “and” are separate records of one study, mostly repeats; a detail may differ. ± gives the spread as reported.
Sequence of UniProt Q9HB29 (whole entry, looked up): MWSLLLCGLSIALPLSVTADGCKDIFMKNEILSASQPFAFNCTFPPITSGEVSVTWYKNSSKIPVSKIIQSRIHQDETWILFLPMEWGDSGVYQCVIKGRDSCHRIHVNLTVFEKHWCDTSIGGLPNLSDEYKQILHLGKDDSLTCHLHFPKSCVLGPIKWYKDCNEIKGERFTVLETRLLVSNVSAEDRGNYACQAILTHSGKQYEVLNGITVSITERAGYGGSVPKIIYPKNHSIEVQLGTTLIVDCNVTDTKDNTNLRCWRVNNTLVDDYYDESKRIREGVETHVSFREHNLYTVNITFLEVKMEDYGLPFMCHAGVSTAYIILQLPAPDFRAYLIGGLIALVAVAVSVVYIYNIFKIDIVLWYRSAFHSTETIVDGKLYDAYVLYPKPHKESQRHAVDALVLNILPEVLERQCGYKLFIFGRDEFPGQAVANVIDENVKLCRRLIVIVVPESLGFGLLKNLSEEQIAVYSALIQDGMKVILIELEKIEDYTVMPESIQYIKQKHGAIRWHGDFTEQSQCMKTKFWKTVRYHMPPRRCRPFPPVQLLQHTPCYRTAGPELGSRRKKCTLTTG
Sequence of UniProt P04062 (whole entry, unmodified, looked up): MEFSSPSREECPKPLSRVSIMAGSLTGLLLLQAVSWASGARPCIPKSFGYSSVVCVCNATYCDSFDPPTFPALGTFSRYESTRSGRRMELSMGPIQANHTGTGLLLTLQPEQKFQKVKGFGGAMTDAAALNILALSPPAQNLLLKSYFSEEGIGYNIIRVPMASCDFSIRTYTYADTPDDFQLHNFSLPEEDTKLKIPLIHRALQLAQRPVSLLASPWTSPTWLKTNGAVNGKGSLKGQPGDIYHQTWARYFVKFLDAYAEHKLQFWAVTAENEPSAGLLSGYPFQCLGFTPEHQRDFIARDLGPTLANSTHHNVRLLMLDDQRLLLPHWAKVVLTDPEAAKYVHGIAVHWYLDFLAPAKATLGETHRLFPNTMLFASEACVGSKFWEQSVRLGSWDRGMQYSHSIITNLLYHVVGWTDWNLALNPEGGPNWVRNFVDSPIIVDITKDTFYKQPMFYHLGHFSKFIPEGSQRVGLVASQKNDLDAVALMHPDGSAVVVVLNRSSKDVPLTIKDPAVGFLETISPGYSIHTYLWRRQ
Sequence of UniProt Q8IU85 (whole entry, looked up): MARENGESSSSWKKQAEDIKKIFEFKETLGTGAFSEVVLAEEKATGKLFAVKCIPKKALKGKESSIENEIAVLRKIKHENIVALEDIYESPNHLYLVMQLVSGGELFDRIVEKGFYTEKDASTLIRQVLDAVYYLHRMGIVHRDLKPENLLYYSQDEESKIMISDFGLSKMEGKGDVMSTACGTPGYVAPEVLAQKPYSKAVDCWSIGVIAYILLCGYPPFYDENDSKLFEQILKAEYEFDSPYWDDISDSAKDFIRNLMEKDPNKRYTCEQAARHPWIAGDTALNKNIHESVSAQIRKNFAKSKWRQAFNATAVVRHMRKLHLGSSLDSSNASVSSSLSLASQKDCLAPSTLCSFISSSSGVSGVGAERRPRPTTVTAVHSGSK
Sequence of UniProt P05106 (whole entry, looked up): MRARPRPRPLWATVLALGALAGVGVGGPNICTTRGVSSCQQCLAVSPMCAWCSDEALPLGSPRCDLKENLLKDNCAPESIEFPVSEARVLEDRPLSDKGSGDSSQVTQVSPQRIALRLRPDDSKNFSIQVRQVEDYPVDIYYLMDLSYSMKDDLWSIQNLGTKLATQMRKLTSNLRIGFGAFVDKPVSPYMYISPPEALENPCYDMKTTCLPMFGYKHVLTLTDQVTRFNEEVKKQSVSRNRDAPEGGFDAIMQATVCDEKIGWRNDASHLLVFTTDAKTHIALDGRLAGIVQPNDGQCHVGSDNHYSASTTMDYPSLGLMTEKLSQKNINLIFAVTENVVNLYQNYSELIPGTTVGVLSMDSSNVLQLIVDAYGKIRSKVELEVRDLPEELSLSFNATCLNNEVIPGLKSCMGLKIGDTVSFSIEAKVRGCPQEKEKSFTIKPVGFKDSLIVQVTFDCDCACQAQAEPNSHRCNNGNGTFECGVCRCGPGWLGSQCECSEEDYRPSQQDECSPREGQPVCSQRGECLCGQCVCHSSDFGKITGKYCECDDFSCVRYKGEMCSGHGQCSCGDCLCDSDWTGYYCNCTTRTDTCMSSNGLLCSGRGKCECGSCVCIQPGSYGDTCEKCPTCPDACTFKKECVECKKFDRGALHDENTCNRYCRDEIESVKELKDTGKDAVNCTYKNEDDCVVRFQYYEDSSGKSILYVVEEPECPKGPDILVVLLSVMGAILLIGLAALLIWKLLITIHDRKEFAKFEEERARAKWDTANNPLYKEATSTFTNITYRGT
Sequence of UniProt Q02156 (whole entry, looked up): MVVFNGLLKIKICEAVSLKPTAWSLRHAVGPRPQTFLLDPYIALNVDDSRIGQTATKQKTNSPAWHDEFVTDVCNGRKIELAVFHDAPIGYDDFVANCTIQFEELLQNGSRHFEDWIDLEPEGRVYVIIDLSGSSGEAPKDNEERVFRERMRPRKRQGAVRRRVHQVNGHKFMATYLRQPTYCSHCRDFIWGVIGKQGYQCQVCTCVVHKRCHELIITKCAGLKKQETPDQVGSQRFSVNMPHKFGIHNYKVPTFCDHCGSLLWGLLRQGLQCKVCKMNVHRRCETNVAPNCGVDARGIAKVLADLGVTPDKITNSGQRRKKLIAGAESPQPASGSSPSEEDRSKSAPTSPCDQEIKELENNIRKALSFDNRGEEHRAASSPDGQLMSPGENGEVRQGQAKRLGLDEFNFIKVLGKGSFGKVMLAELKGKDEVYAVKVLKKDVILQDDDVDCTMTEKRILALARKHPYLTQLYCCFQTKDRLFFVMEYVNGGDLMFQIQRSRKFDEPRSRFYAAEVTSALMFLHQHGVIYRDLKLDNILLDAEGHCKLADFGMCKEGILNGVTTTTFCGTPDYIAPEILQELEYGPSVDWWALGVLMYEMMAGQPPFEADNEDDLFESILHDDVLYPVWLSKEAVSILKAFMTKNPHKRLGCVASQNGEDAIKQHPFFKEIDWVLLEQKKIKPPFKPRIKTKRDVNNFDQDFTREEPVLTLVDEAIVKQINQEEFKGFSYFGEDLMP

CCC(=O)N(CC#N)S(=O)(=O)c1ccc(C)cc1 — pseudo-first-order rate constant (reaction with N-acetyl-lysine, HPLC-MS; pH 10.2, with: N-α-acetyl-lysine): 35.3 h⁻¹
CC(C)[C@@H]1NC(=O)[C@H](Cc2ccccc2)NC(=O)CSC[C@@H](C(N)=O)NC(=O)[C@H](CCC(=O)O)NC(=O)[C@H](CO)NC(=O)[C@H](Cc2c[nH]c3cccc(Cl)c23)NC(=O)[C@H](C2CCCCC2)NC(=O)[C@H](C(C)C)NC(=O)[C@H](Cc2ccc(O)cc2)NC(=O)[C@H](CC(=O)O)NC(=O)[C@H](Cc2c[nH]c3ccccc23)NC(=O)[C@H](Cc2ccc(N)nc2)NC(=O)[C@H](Cc2c[nH]c3ccc(Cl)cc23)NC(=O)[C@H](CCC(=O)O)NC1=O — remaining activity (Interleukin-1 receptor-like 2 (IL1RL2, Homo sapiens, UniProt Q9HB29); reporter gene (SEAP), inhibitor, HEK-Blue IL-36R reporter; HEK-Blue IL-36R cells; 0.14 µM, 6 h, with: IL-36β 1 ng/mL): 90.2%
Cc1ccc(NC(=O)CCC(=O)N/N=C/c2ccc([N+](=O)[O-])o2)cc1C — translation activity (Trypanosoma cruzi; reporter mRNA translation, inhibitor, refers to: Renilla luciferase mRNA; cell-free extract; concentration not given, test 1; reference: positive over negative control): 105% and 99%
Cc1onc(-c2ccccc2)c1-c1ccc(S(=O)(=O)Cl)cc1 — pseudo-first-order rate constant (reaction with N-acetyl-lysine, HPLC-MS; pH 10.2, with: N-α-acetyl-lysine): 1.7 h⁻¹
C=CC(=O)N1CCCC(n2c(=O)c3ncccc3n(Cc3ccc(Oc4ccccc4)cc3)c2=O)C1 (stereo not shown) — melting temperature shift (Calcium/calmodulin-dependent protein kinase type 1D (CAMK1D, Homo sapiens, UniProt Q8IU85); thermal proteome profiling; cell proteome; unit not given; reference: vehicle): -10.2
COc1cc(CN(C)CCc2ccccc2)ccc1OCc1ccccc1 — translation activity (Trypanosoma cruzi; reporter mRNA translation, inhibitor, refers to: Renilla luciferase mRNA; cell-free extract; concentration not given, test 1; reference: positive over negative control): 108% and 110%
Cc1nn(-c2cccc(N)c2)c(=O)c2cnc(Nc3ccc(N4CCNCC4)cc3)nc12 — IC50 (Protein kinase C epsilon type (PRKCE, Homo sapiens, UniProt Q02156); kinase activity, inhibitor, SelectScreen kinase profiling): > 10 µM
CCCC[C@@H]1NC(=O)[C@@H](CC(C)C)NC(=O)[C@H](CCCCNC(=O)CN2CCN(CC(=O)O)CCN(CC(=O)O)CC2)NC(=O)NNC(=O)[C@H](Cc2c[nH]cn2)NC(=O)[C@@H](Cc2c[nH]c3ccccc23)NC1=O [copper-64 labelled] — tissue uptake (Balb/c mice, liver; intravenous, dose not given): 5.85 ± 1.33 %ID/g
O=Cn1nnc2ccccc21 — pseudo-first-order rate constant (reaction with N-acetyl-lysine, HPLC-MS; pH 10.2, with: N-α-acetyl-lysine): 0 h⁻¹
OC[C@H]1[C@@H](O)[C@H](O)[C@@H](O)CN1CCCCCOCc1ccc(-c2ccccc2)c(F)c1 — IC50 (Lysosomal acid glucosylceramidase (GBA1, Homo sapiens, UniProt P04062, R534H); inhibitor, 4MU-β-D-glucopyranoside; with: 4MU-β-D-glucopyranoside): 6 µM
CCCC[C@H](NC(=O)CCCCCCCNC(=O)CN1CCN(CC(=O)O)CCN(CC(=O)O)CC1)C(=O)N[C@H]1CC(=O)NCCCC[C@@H](C(N)=O)NC(=O)[C@H](Cc2c[nH]c3ccccc23)NC(=O)[C@H](CCCNC(=N)N)NC(=O)[C@@H](Cc2ccccc2)NC(=O)[C@H](Cc2c[nH]cn2)NC1=O [technetium-99m labelled] — tissue uptake (C57 mouse, blood; intravenous, 0.037 MBq, 2 h): 0.15 ± 0.05 %ID/g
Cc1cc(NC(=O)C23CC4CC(C2)CC(n2cnc([N+](=O)[O-])n2)(C4)C3)no1 — translation activity (Trypanosoma cruzi; reporter mRNA translation, inhibitor, refers to: Renilla luciferase mRNA; cell-free extract; concentration not given, test 2; reference: positive over negative control): 112% and 120%
O=C(N[C@@H](Cc1ccc(OCCCCC2CCNCC2)cc1)C(=O)O)c1nc2ccccc2o1.O=C(O)C(F)(F)F — fibrinogen binding MFI (Integrin alpha-IIb/beta-3 (Homo sapiens, UniProt P05106+P08514); inhibitor, flow cytometry; washed platelets, human; 15 nM, 30 min, room temperature, with: ADP 20 µM, Alexa647-fibrinogen; higher = more binding): 196000 a.u.

For quick reference, copied from above:
O=Cn1nnc2ccccc21 — pseudo-first-order rate constant (reaction with N-acetyl-lysine, HPLC-MS; pH 10.2, with: N-α-acetyl-lysine): 0 h⁻¹
